Measured values pooled from the literature.
Compare with care: the assays were run in different laboratories. Several values in a cell are separate wells, animals, samples, runs or records. ± marks the error that the study gave. In brackets after ≈: the same amount, converted by molar mass.

Structure (SMILES) = CS(=O)(=O)c1cc(Cl)cc(-c2cc(Cl)c(Cl)cc2Cl)c1Cl; test system = whole cow milk; setting = 20 nM nominal; endpoint = dose fraction in skim milk; value = 7.63%
Structure (SMILES) = C=C(NC(=O)c1csc(-c2nc3c(cc2O)-c2nc(cs2)C(=O)NC(C(C)O)C(=O)NC(=C(C)OC)c2nc(cs2)C(=O)NC2c4nc(cs4)C(=O)NC(COC(=O)c4c5c6c(cccc6n4O)COC(=O)C(OC4CC(C)(O)C(N(C)C)C(C)O4)C2OC5)c2nc-3cs2)n1)C(N)=O (stereo not drawn); test system = ICR mice, Streptococcus pneumoniae ATCC 49169 infected, immunocompromised, blood; setting = intravenous, 2 mg/kg/day three times daily; endpoint = MRT(0-t); value = 7.54 h
Structure (SMILES) = CCN(CC)CC#CCNc1ccnc2cc(Cl)ccc12; target or system = Salmonella typhimurium; test = mini-Ames test; test system = TA100; setting = 500.0 µg/well, without S9; endpoint = revertants per well; value = 18
Structure (SMILES) = C/C(N)=N/C(=N\S(=O)(=O)c1ccc(C(F)(F)F)cc1)N1C[C@H](c2ccccc2)C(c2ccc(Cl)cc2)=N1; test system = mouse; scale = baseline: in vivo over in vitro CLint; endpoint = empirical scaling factor; value = 33
Structure (SMILES) = CCCCN1C(=O)c2cccc3c(NCCCCCN4CCOCC4)ccc(c23)C1=O; test system = toluene; endpoint = emission maximum; value = 498 nm
Structure (SMILES) = C=CC(=O)Nc1cc(Nc2nccc(-c3c[nH]c4ccccc34)n2)c(OC)cc1N(C)CCN(C)C; test = storage stability; test system = human plasma; setting = 10 d, on ice, HQC level; endpoint = recovery; value = 61.7%
Structure (SMILES) = CCCCN1C(=O)c2cccc3c(NCCCCCCCCCCN4CCOCC4)ccc(c23)C1=O; test system = ethylene glycol; endpoint = emission maximum; value = 545 nm
Structure (SMILES) = CN(C)C(=O)c1ccnc(N2Cc3cn(Cc4cc(Cl)cc(Cl)c4)nc3C2)n1; test = metabolic stability; test system = rat, liver microsomes; endpoint = half-life; value = 0.533 h
Structure (SMILES) = COC(=O)C(C)n1nc(Cn2cc3cc(OCC[18F])c(Cl)cc3n2)c2ccccc2c1=O (racemic); test system = rat, plasma; setting = 150 min; endpoint = parent compound; value = 0%
Structure (SMILES) = CC[C@H](C)[C@@H](C(=O)N[C@@H](CC(C)C)C(=O)N[C@@H](CO)C(=O)N[C@@H](CO)C(=O)N[C@H](C(=O)N[C@@H](CCC(=O)O)C(=O)N[C@H](C(=O)NCC(=O)N[C@@H](CO)C(=O)N[C@@H](CC(N)=O)C(=O)N[C@H](C(=O)N1C[C@H](O)C[C@H]1C(N)=O)[C@@H](C)O)C(C)C)[C@@H](C)O)N(C)C(=O)[C@H](C)NC(=O)CN(C)C(=O)[C@H](Cc1ccccc1)NC(=O)[C@H](CO)NC(=O)[C@H](CO)NC(=O)[C@H](CCCNC(=N)N)NC(=O)[C@H](CCC(N)=O)NC(=O)[C@H](CC(C)C)NC(=O)[C@H](Cc1ccccc1)NC(=O)[C@H](CC(=O)O)NC(=O)[C@H](C)NC(=O)[C@H](CC(C)C)NC(=O)[C@H](CCCNC(=N)N)NC(=O)[C@H](CCC(N)=O)NC(=O)[C@@H](NC(=O)[C@H](C)NC(=O)[C@@H]1CSSC[C@H](NC(=O)[C@H](CCCNC(=N)N)NC(=O)CC[C@H](NC(=O)CCCCCCCCCCCCCCCCCCC(=O)O)C(=O)O)C(=O)N[C@@H](CC(N)=O)C(=O)N[C@@H]([C@@H](C)O)C(=O)N[C@@H](C)C(=O)N[C@@H]([C@@H](C)O)C(=O)N1)[C@@H](C)O; test = LC-MS/MS; test system = male Sprague-Dawley rats, lean, plasma; setting = subcutaneous, 30 nmol/kg single; endpoint = terminal half-life; value = > 30 h
Structure (SMILES) = CNC(=O)C1CCCN(C(=O)C2CC3CCC2N3C(=O)[C@@H]2C[C@@H](O)CN2C(=O)NCc2cccc(Cl)c2F)C1 (mixture of isomers); test = metabolic stability; test system = monkey, liver microsomes; endpoint = microsomal CLint; value = 21.6 µL/min/mg
Structure (SMILES) = Cc1nc(N)nc2c1C(=O)N[C@@H](c1ccc(F)cc1-c1cccc(O[11CH3])n1)C2; test = ex vivo biodistribution; test system = mice, MDA-MB-231 subcutaneous xenograft, kidneys; setting = 60 min post-injection, baseline, vehicle pre-treatment; endpoint = tracer uptake; value = 2.7 ± 0.4 %ID
Structure (SMILES) = CCCCN1C(=O)c2cccc3c(NCCCCN4CCOCC4)ccc(c23)C1=O; test system = dioxane; endpoint = emission maximum; value = 504 nm
Structure (SMILES) = COc1cc2oc(-c3ccc(C(F)(F)F)cc3F)cc(=O)c2c(O)c1O; test = cyclic voltammetry; test system = DMSO, 0.1 M Bu4NPF6; setting = 25 °C; endpoint = half-wave potential; value = -1.82 V vs Ag/AgCl
Structure (SMILES) = COC1CN([C@H]2CC[C@H]([C@@]3(C)Oc4c(Cl)cc(C(=O)NCc5c(SC)cc(C)[nH]c5=O)c(C)c4O3)CC2)C1; test = RNA-seq, measured: HPGD; test system = human, whole blood; setting = dose not given, 24 h; scale = baseline: pretreatment baseline; endpoint = log2 fold change; value = 2.69
Structure (SMILES) = O=C(Nc1cnccc1-c1ccc([18F])cc1)c1ccnc(NC(=O)C2CC2)c1; test = ex vivo gamma counting; test system = GSK-3β transgenic mice, late-stage, muscle; setting = intravenous, 120 min, with: tariquidar 15 mg/kg iv; endpoint = mean SUV; value = 0.3
Structure (SMILES) = C=CC(=O)N1CCCC(n2c(=O)c3ncccc3n(Cc3ccc(Oc4ccccc4)cc3)c2=O)C1 (stereo not drawn); test = metabolic stability; test system = male Sprague-Dawley rat, hepatocytes; setting = 1 µM, 90 min; endpoint = compound remaining; value = 0%
Structure (SMILES) = CC[C@H](C)[C@@H]1NC(=O)[C@H](Cc2ccc(O)cc2)NC(=O)CCCSC[C@@H](C(=O)N(CC(=O)N[C@@H](CC(C)C)C(=O)NCC(N)=O)Cc2ccc(F)cc2)NC(=O)[C@H](CC(N)=O)NC(=O)[C@H](CCC(N)=O)NC1=O; test system = human; setting = intranasal, 400 µg repeated doses; endpoint = adverse drug reactions; value = 50%
Structure (SMILES) = COc1cc(-c2nc3ccccc3s2)cc(CN2CCN(C)CCN(Cc3cc(-c4nc5ccccc5s4)cc(OC)c3O)CC2)c1O; test = UV-vis spectrophotometric titration; test system = aqueous NaCl 0.1 M; setting = 20 µM, 25 °C, pH 3 to 11; endpoint = pKa2; value = 7.13
Structure (SMILES) = Cc1nn(-c2nc3c(F)cc(F)cc3s2)c(O)c1C(c1ccc(C(F)(F)F)cc1)c1c(C)nn(-c2nc3c(F)cc(F)cc3s2)c1O; test system = ICR mouse; setting = intravenous, 5 mg/kg, 0.75 h; endpoint = plasma concentration; value = 9720 ng/mL and 8680 ng/mL and 7340 ng/mL
Structure (SMILES) = COc1cccc(OC)c1-c1cc(C(=O)NC2(C(=O)O)C3CC4CC(C3)CC2C4)nn1-c1ccc(C(=O)N(C)CCOCCOCCN(C)C(=O)[C@H](CCCCNC(=O)[C@H](CC(C)C)NC(=O)C2OC2C(=O)O)NC(=O)CN2CCN(CC(=O)[O-])CCN(CC(=O)[O-])CCN(CC(=O)[O-])CC2)cc1C(C)C.[177Lu+3] (mixture of isomers); test system = mouse HT-29 xenograft; setting = 168 h, biodistribution; scale = baseline: tumour over spleen; endpoint = tumour-to-spleen ratio; value = 1.67
Structure (SMILES) = COCC1CN(C2CCN(c3cc(OC)c(Nc4ncc(Br)c(Nc5ccc6c(c5P(C)(C)=O)OCCO6)n4)cc3C)CC2)C1; test = phase 1 trial; test system = human, advanced EGFR-mutant NSCLC; setting = oral, dose not given; endpoint = grade ≥3 treatment-related AEs; value = 22.2%
Structure (SMILES) = CCC(CC)CNC(=N)NC(=N)NCCCCCCNC(=N)NC(=N)NCC(CC)CC; test = metabolic stability; test system = monkey, hepatocytes; setting = 1 µM; endpoint = scaled CLint; value = 29.6 mL/min/kg
Structure (SMILES) = COc1ccc(CNc2nc([C@H]3CC[C@H](C(=O)O)CC3)nc3sc4ccccc4c23)cc1Cl; test system = NSG mice; setting = dose not given, day 2; endpoint = body weight; value = 22.1 g and 18.9 g and 21.4 g and 22.8 g
Structure (SMILES) = O=C1C2CC3CC1CC(C(=O)N1CCN(c4ccc([N+](=O)[O-])c5ncccc45)CC1)(C3)C2; target or system = Escherichia coli; test = Ames test; test system = WP2 uvrA pKM101; setting = 0.05 µg/well, without S9 activation; endpoint = revertant colony count; value = 25 colonies/well
Structure (SMILES) = [123I]c1ccc2nc(-c3ccc(-n4ccnn4)nc3)cn2c1; test system = male Wistar rat, kidney; setting = intravenous, 4 MBq, 14 h; endpoint = tracer uptake; value = 0.02 %ID/g
Structure (SMILES) = CN1CCCNC(=O)c2cccc(c2)C(=O)NCCCN(C)CCCNc2cccc3c2C(=O)c2cccc(c2C3=O)NCCC1; target or system = SAS; test = RNA-Seq, measured: TFB1M mRNA; setting = 1 µM, 6 h; scale = baseline: untreated cells; endpoint = log2 fold change; value = -1.39
Structure (SMILES) = CC(C)=CCC1=C([O-])C(=O)c2ccccc2C1=O.CC(C)=CCC1=C([O-])C(=O)c2ccccc2C1=O.Cc1cc2cccnc2c2ncccc12.O.[Cu+2]; test = cyclic voltammetry; test system = CH2Cl2, Bu4NPF6; setting = 0.1 mM; scale = baseline: Ag/AgCl sat. KOH; endpoint = Epc1 cathodic peak potential; value = 0.85 V
Structure (SMILES) = O=c1c(O)cccc2cc(O)c(O)c(O)c12; target or system = HepDES19; test = cell growth or viability, MTS; setting = 72 h; endpoint = CC50; value = 92 µM
Structure (SMILES) = Cc1cc(-c2ccc(C(=O)[C@@H]3CCCC[C@H]3C(=O)Nc3cnn4c3C(=O)NCC4)cc2)[nH]n1; test system = human, urine; setting = oral, 200 mg, mean of six subjects; scale = baseline: dose; endpoint = cumulative recovery of radioactivity; value = 5.9%
Structure (SMILES) = CN[C@H]1CC[C@H]([C@@]2(C)Oc3c(Cl)cc(C(=O)NCc4c(C)cc(C)[nH]c4=O)c(C)c3O2)CC1; test system = healthy men, urine and feces; setting = oral, 200 mg [14C]-valemetostat; scale = baseline: dose; endpoint = excretion; value = 1.64%
Structure (SMILES) = CN(O)C(=O)CCC(=O)NCCCN(CCCCN(CCCNC(=O)CCC(=O)N(C)O)C(=O)CCC(=O)N(C)O)C(=O)CCC(=O)N(C)O.[89Zr]; test = radio-TLC; test system = aqueous buffer; setting = 3 d, pH 7, 37 °C, 89Zr-labelled complex, with: DTPA 100-fold excess; endpoint = intact complex; value = 98.4 ± 1.4%
Structure (SMILES) = CC(C)(O)c1ncc([S@](N)(=O)=NC(=O)Nc2c3c(cc4c2CCC4)CCC3)s1; test system = healthy human subjects; setting = oral, 100 mg, capsule, fasted; endpoint = subjects with gastrointestinal adverse events; value = 40%
Structure (SMILES) = COc1cccc(OC)c1-c1cc(C(=O)NC2(C(=O)O)C3CC4CC(C3)CC2C4)nn1-c1ccc(C(=O)N(C)CCOCCN(C)C(=O)[C@H](CCCCNC(=O)[C@H](CC(C)C)NC(=O)C2OC2C(=O)O)NC(=O)CN2CCN(CC(=O)[O-])CCN(CC(=O)[O-])CCN(CC(=O)[O-])CC2)cc1C(C)C.[177Lu+3] (mixture of isomers); test system = mouse HT-29 xenograft; setting = 24 h, biodistribution; scale = baseline: tumour over pancreas; endpoint = tumour-to-pancreas ratio; value = 6.01
Structure (SMILES) = O=c1c2ccccc2[se]n1CCCCCCn1[se]c2ccccc2c1=O; test = shake-flask, RP-HPLC; test system = ethanol; setting = 24 h, 25 °C; endpoint = solubility; value = 1280 ± 40 µg/mL (≈ 2680 µM)
Structure (SMILES) = Nc1ncc(-c2cc(-c3cnn(CC(F)(F)F)c3)ncc2F)nc1C(=O)NC1CNCC(F)C1 (stereo not drawn); target or system = CDC2L2; test = KINOMEscan; setting = 1 µM; scale = baseline: DMSO control; endpoint = remaining binding; value = 100%
Structure (SMILES) = Cc1noc(C)c1Cn1cc(N2C(=O)CN(Cc3cccc(OS(=O)(=O)O)c3)C2=O)cn1; test system = Sprague-Dawley rat, male; setting = oral, 10 mg/kg of parent drug, 4 h; endpoint = plasma concentration; value = 1910 ng/mL
Structure (SMILES) = CCOC(=O)c1nc2cc(Cl)c(Cl)cc2nc1N1CCN(C(=O)Nc2ccc(N3CCNCC3)cc2)CC1; test system = male mice, plasma; setting = intravenous, 3 mg/kg; endpoint = Vss; value = 22.4 L/kg
Structure (SMILES) = Cc1ncsc1-c1ccc(C(C)NC(=O)C2CC(O)CN2C(=O)C(NC(=O)CCCCCCCCCCN2CCCC(Nc3ncc(Cl)c(Nc4ccccc4S(=O)(=O)C(C)C)n3)C2)C(C)(C)C)cc1 (stereo not drawn); target or system = 22Rv1; test = RNA-seq, measured: MOB3C mRNA; setting = concentration not given; scale = baseline: DMSO; endpoint = log2 fold change; value = -1.58

Repeated from above:
Structure (SMILES) = CCCCN1C(=O)c2cccc3c(NCCCCCN4CCOCC4)ccc(c23)C1=O; test system = toluene; endpoint = emission maximum; value = 498 nm
Structure (SMILES) = COC1CN([C@H]2CC[C@H]([C@@]3(C)Oc4c(Cl)cc(C(=O)NCc5c(SC)cc(C)[nH]c5=O)c(C)c4O3)CC2)C1; test = RNA-seq, measured: HPGD; test system = human, whole blood; setting = dose not given, 24 h; scale = baseline: pretreatment baseline; endpoint = log2 fold change; value = 2.69
Structure (SMILES) = O=c1c(O)cccc2cc(O)c(O)c(O)c12; target or system = HepDES19; test = cell growth or viability, MTS; setting = 72 h; endpoint = CC50; value = 92 µM
Structure (SMILES) = COc1ccc(CNc2nc([C@H]3CC[C@H](C(=O)O)CC3)nc3sc4ccccc4c23)cc1Cl; test system = NSG mice; setting = dose not given, day 2; endpoint = body weight; value = 22.1 g and 18.9 g and 21.4 g and 22.8 g
